Published values gathered from unrelated publications.
Parts stem from different laboratories: compare values within a part only. Changes are numbered by the printed parent chain.
UniProt P49459, sequence (whole entry, looked up): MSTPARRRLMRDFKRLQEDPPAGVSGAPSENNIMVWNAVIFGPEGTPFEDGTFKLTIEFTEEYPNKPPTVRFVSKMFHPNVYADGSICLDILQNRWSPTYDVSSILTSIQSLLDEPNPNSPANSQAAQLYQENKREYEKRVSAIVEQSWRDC
UniProt Q96B02, sequence (whole entry, looked up): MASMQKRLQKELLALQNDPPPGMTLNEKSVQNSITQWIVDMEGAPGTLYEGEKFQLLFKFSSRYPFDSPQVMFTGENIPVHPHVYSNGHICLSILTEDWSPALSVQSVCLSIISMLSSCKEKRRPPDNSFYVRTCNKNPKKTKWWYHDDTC
UniProt P61077, sequence (whole entry, looked up): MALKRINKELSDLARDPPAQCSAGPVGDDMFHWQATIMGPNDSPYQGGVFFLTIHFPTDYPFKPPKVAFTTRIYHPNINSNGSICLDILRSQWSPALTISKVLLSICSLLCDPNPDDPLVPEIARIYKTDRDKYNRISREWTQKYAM

Set 1
Target: CCNA1, cyclin fold, Cln2 fusion (human)
Technique: yeast growth competition, sequencing
Matrix: yeast
Setting: strong parent motif
Baseline: not given
Reading: higher = stronger binding
Endpoint: normalised enrichment score
Starting sequence: viral docking peptide; YKVKRRLVFGADD; partner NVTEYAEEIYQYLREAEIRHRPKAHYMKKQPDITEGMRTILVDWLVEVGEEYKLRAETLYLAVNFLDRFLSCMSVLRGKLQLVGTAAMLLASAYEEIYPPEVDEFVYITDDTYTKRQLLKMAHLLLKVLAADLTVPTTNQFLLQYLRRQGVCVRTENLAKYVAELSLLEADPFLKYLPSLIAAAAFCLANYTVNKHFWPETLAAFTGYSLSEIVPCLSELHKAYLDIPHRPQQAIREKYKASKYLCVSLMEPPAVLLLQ
K4N: 0.817
L7Q: 0.0412
L7G: 0.154
G10I: 1.04
D12H: 0.989
V3F: 0.784
R6D: 0.131

Set 2
Target: HLA class I histocompatibility antigen, A alpha chain, allele A*25:01 (Homo sapiens, UniProt P04439)
Observed: peptide-MHC binding
Form: peptide
Concentration: concentration not given
Endpoint: binding
GRFQEALKK: inactive
LPPVVPPLI: inactive
NPLEIYQEI: inactive
MTFPVSLEY: active
YSGNIVHRY: inactive

Set 3
Sequence: B1 (NHLRC1 RING domain)
Technique: yeast two-hybrid
Matrix: yeast
Setting: mostly zero background
Baseline: not given
Reading: higher = stronger interaction
Endpoint: lacZ reporter activity
B1: NHLRC1 RING domain (UniProt Q6VVB1); chain MREAEISLLECKVCFEKFGHRQQRRPRNLSCGHVVCLACVAALAHPRTLALECPFCRRACRGCDTSD
UBE2D3 UBC core domain (UniProt P61077): 0
UBE2A UBC core domain (UniProt P49459): 0
UBE2W UBC core domain (UniProt Q96B02): 0

Set 4
Target: RING finger protein unkempt homolog, zinc fingers 1-6, GST-SBP tag (UNK, Homo sapiens, UniProt Q9C0B0, residues 30-357)
Technique: RNA Bind-n-Seq
Form: RNA
Matrix: in vitro
Concentration: not given
Setting: RNA with constant flanks, human and mouse sites, ends assumed
Baseline: input RNA pool
Reading: higher = stronger binding
Endpoint: bound/input enrichment
All sequences stand within: GGGAGUUCUACAGUCCGACGAUC … CAACAGAGGAUUGAGCAUCA
Residues (chain): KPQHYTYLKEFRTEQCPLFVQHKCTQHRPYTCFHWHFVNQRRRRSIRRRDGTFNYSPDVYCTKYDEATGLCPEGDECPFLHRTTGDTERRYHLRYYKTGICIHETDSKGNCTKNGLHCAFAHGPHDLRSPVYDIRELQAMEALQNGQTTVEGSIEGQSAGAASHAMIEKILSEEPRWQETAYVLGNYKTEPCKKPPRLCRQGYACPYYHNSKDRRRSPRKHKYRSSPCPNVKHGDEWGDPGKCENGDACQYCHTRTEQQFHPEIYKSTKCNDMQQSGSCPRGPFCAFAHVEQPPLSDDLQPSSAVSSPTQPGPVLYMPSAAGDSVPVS
UCCUUUCAGCGGCGCGCGGCUGCAAGAUGGCGGUGCAGAUUUCCAAGAAGAGGAAGUUUGUAGCUGAUGGCAUCUUCAAAGCUGAGCUGAAUGAAUUUCUCACUCGGGAGCUGGCUGAAG: 0.0901 ratio
GUGAACCCAGUGGAGUUCUGCCGCCGCGACAUUCCUCUGCUGGACAGGGACAACAUUGGAUUGGUUUUACUCCUGCAGCCCAAGAUCCCACGCGCUGCCUCUCCAUCCAUCUGCAUAGCU: 0.246 ratio
CAGAGCAUAGCGAUUGUUUUUGGCCCCACCCUUCUAAAGCCAGAAAGAGAGACUGGUAAUAUAGCAGUUCAUACUGUGUACCAGAACCAGAUUGUAGAGCUGAUUCUCCUGGAAUUAAGC: 0.376 ratio
GAAGAAUUAGAUGCCUUGUUAAACAAUUUCUGUGAACUCUCAGCUCCAGGAGGUGUGGAAAAUAGUUAUGGGAAAAUAAAUAUCCUACUUCAAACCUACAUCAGCCGAGGAGAGAUGGAC: 1.03 ratio
AGCUUCCGCCCGGAGGACUCCCUCAUUAGCAAUGACUCAGAAGUCAUCAUAGAGCCCAAGGAACAACUAGGACAUCAUGAUUCUCAGCAUUUGGAUAAAUUUGACAUUCCUUUUGAAAUG: 3.98 ratio
UUGGAAGAGACCAGUGUUGAAAGACAAAUACUUCAUCAGAAGGAAACAAAUCAGGAUGUGCAAUGUAAUCGUUUUUUCCCAAGUAGAAAAACAAAGCCUGUGAAAUGUAUACUAAAUGGA: 0.296 ratio
UAUGCCACCUUCUGUUAUUUUCAUCGCUUUUUGAAGAGAAACAUGGAAGAGACUUUUUUUUAUUUAUUCUCACGGUGCAGAAAUGACAACACUGUGCUAUAUCUACUACCCAGGGUCCCG: 0.217 ratio
CGAUAGGAGUGGCACCGUGGAUCCCCAGGAGCUACAGAAGGCCCUGACGACUAUGGGAUUCAGGUUGAGCCCCCAAACUGUGAAUUCAGUUGCAAAGCGAUACAGCACCAGCGGGAAGAU: 0.15 ratio

Repeated from above (set 2):
LPPVVPPLI: inactive
NPLEIYQEI: inactive
MTFPVSLEY: active
